Results of several laboratories.
Parts stem from different laboratories: compare values within a part only.

Set 1
Target: Ras GTPase-activating protein-binding protein 1, C-terminal RGG region (G3BP1, Homo sapiens, UniProt Q13283)
UniProt Q13283, sequence (whole entry, looked up): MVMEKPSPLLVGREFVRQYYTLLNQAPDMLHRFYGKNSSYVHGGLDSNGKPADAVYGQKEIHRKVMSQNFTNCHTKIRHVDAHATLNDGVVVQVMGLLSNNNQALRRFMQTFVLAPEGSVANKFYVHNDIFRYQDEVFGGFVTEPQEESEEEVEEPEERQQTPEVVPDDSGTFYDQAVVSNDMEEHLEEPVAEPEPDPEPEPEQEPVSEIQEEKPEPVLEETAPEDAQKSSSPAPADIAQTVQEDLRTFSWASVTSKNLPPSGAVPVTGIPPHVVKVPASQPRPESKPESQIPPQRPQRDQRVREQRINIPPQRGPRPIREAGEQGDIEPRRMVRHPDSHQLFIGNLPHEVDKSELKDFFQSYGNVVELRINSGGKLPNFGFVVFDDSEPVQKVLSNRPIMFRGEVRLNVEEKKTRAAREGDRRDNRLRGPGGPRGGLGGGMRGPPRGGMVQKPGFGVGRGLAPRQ
Method: RNA Bind-n-Seq
Molecule type: RNA
Sample: in vitro
Concentration: 1 µM
Setting: whole 134-nt RNA, ends assumed
Added: 150 mM KCl
Baseline: input library
Direction: higher = stronger binding
Sequence	log2 enrichment
GGGAGUUCUACAGUCCGACGAUCACCAUGCAGGUGGGCAUCUUUGGGAAGUGGGGCAAGGGGGGGAUAGGGAGGGGGGUAACACUUUGGGAACAGGUGGUCCCAGGUCGUUUGUGGAAUUCUCGGGUGUCAAGG	2.17
GGGAGUUCUACAGUCCGACGAUCCUCAAGUCCUGUGCUACACAUCGUAUGUACCGAAUCGGGUUGGGUUGGUUGGGAAAGUAUUAUGUUACGCCGUUCGGAUCUGCACUUCCAUGGAAUUCUCGGGUGUCAAGG	0.213
GGGAGUUCUACAGUCCGACGAUCUAACUUUAGAGGAGGAUCUGAUGGAUAUGGGAGUGGACGUGGAUUUGGGGAUGGCUAUAAUGGGUAUGGAGGAGGACCUGGAGGUGGCAAUGGAAUUCUCGGGUGUCAAGG	0.157
GGGAGUUCUACAGUCCGACGAUCUCCUCAAGUCCUGUGCUACACAUCGUAUGUACCGAAUCGGUGGGGUGGUGGAAAGUAUUAUGUUACGCCGUUCGGAUCUGCACUUCCAGCUGGAAUUCUCGGGUGUCAAGG	-0.67

Set 2
Target: Histone acetyltransferase KAT6A, winged helix 2, GST fusion (KAT6A, Homo sapiens, UniProt Q92794, residues 85-181)
Method: protein binding microarray
Molecule type: double-stranded DNA, one strand shown
Sample: in vitro
Concentration: not given
Setting: 8-mer, flanks averaged, mean of 2 arrays, mostly near background
Baseline: not given
Direction: higher = stronger binding
Residues (chain): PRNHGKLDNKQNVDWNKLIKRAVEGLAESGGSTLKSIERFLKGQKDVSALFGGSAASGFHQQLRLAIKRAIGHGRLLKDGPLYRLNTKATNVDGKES
Sequence	E-score
AGGGTTAT	-0.199
AACTTACA	-0.0411
AGCGGGAT	0.0747
ACTCTGGG	0.13
AGTCGCAG	0.0681
CGCCTTTA	0.172

Set 3
Target: Max dimerization protein 1, bHLH-zipper, MAX partner unstated (MXD1, Homo sapiens, UniProt Q05195, residues 56-136)
Method: protein-binding microarray
Molecule type: double-stranded DNA, one strand shown
Sample: in vitro
Concentration: not given
Setting: k-mer, scored over probes, only values ≥0.25
Direction: higher = stronger binding
Residues (chain): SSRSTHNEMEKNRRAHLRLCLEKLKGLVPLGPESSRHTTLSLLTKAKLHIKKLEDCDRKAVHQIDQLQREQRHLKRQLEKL
Sequence	E-score
AATGTGCT	0.266
CGCACACG	0.386
ACATATGT	0.305
CATGCGAA	0.279

Other studies, line by line
Molecule	target	test	system	conditions	how to read	measurement	value
PhoQ, residues 284 288 289 292 302 303 NLAAMI	PhoP, residues 12 14 15 18 19 HLGGL (Escherichia coli, UniProt P23836)	Sort-seq, measured: YFP reporter	E. coli	PhoQ-PhoP variant library, added: 10 µM Mg2+	baseline: high Mg2+ state, higher = stronger signaling	fold induction	13.6

Repeated from above (set 2):
Sequence	E-score
AGGGTTAT	-0.199
